Assay results pooled from the literature.
Parts stem from different laboratories: compare values within a part only. “And” joins repeats or separate records; there may be more than shown.
Chain of UniProt Q9H2X6 (whole entry, looked up): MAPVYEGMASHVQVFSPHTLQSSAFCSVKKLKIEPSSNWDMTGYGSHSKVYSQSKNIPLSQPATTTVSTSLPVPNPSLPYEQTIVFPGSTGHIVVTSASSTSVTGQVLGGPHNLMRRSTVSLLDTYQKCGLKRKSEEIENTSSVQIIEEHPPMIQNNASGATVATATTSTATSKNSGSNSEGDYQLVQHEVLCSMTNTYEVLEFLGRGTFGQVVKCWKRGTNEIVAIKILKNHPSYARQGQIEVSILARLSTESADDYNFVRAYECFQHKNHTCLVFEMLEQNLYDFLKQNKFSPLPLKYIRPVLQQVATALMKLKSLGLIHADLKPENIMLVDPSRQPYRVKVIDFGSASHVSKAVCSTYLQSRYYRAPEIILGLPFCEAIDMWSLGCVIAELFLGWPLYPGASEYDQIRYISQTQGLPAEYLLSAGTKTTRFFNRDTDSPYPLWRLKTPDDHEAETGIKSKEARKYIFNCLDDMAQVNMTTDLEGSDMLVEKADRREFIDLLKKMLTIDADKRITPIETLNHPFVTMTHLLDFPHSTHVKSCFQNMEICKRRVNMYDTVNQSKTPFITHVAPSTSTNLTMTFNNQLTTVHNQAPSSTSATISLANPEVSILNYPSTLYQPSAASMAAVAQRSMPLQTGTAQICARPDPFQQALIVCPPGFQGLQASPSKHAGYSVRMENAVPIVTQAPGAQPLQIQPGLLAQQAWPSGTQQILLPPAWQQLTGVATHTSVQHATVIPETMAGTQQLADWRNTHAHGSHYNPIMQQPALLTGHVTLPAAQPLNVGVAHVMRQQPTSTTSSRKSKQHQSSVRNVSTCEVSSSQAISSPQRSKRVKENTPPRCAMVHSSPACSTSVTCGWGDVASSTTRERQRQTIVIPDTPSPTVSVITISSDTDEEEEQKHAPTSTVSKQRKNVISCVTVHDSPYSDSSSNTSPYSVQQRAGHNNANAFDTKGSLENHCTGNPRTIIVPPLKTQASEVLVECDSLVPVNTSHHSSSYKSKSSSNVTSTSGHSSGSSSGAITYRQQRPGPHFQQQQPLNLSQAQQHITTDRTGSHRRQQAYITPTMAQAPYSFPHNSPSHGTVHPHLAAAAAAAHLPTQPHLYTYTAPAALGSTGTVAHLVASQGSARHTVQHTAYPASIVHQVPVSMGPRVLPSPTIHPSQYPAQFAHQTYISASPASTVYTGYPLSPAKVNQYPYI
Chain of UniProt Q13873 (whole entry, looked up): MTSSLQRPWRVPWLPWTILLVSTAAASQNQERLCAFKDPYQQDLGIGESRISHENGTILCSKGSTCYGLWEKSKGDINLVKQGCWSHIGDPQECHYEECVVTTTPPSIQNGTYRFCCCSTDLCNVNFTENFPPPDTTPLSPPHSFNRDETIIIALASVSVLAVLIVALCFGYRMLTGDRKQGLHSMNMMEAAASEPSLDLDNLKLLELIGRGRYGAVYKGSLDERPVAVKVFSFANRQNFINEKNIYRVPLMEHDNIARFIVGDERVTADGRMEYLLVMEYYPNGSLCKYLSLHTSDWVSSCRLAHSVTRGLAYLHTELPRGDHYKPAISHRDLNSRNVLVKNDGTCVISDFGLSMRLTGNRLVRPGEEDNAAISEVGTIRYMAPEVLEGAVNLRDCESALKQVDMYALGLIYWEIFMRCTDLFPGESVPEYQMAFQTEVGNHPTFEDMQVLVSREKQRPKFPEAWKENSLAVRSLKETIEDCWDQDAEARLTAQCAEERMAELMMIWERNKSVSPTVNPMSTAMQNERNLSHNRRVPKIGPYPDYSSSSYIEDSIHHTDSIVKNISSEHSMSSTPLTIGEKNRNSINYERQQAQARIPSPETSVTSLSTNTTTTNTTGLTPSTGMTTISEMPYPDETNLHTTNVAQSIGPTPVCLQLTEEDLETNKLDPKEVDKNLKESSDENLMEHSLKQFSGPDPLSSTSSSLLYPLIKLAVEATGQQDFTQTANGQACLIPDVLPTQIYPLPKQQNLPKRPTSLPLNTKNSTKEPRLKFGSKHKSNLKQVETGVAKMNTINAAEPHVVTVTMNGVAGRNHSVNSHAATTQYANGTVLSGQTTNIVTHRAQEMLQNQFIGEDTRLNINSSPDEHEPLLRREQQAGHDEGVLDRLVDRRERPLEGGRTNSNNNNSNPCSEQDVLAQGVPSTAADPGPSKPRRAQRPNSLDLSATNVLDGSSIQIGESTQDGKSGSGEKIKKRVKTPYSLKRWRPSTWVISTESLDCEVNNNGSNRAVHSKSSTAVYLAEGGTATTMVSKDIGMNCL
Chain of UniProt Q06418 (whole entry, looked up): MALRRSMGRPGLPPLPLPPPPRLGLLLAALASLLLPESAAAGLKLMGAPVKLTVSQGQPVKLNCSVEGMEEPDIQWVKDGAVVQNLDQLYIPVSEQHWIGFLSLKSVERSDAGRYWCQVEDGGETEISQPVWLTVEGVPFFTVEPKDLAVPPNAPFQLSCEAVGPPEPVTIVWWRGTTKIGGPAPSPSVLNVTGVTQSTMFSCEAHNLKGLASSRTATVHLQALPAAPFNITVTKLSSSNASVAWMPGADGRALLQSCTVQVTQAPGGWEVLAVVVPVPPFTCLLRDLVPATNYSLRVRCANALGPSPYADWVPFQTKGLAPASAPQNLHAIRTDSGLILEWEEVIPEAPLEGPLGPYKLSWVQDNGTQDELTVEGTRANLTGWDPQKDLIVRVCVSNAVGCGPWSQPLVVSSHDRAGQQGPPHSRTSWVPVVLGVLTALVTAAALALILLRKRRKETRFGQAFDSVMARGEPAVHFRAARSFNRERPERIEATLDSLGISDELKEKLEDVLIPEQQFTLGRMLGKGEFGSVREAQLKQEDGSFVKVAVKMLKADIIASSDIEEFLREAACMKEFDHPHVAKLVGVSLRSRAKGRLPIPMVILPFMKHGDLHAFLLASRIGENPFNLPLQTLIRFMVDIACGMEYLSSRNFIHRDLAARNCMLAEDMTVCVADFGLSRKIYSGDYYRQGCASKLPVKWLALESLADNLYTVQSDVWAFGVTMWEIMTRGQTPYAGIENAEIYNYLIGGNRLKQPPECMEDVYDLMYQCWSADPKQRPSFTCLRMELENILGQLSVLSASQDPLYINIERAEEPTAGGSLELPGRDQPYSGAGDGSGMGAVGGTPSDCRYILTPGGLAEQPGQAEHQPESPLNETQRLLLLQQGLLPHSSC
Chain of UniProt Q15349 (whole entry, looked up): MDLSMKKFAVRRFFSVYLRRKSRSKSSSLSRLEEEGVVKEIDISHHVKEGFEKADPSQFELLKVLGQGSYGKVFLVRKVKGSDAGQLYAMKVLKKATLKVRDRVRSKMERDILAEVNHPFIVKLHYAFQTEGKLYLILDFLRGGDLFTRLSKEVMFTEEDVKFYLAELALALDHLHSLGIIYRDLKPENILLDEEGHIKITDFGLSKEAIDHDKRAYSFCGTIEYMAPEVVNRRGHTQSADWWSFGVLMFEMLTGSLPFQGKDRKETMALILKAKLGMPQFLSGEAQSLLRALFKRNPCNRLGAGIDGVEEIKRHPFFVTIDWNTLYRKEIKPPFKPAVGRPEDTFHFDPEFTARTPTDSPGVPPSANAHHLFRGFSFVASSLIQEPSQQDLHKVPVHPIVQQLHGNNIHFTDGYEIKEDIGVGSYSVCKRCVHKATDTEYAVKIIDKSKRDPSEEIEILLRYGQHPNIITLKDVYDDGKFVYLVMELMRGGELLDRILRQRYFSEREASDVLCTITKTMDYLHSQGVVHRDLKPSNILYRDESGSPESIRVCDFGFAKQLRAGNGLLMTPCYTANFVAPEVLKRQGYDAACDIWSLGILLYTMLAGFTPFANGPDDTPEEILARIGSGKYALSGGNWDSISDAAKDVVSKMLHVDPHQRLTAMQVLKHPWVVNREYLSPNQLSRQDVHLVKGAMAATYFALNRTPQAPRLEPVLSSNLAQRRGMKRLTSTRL

Series 1 — observed: binding; mode: competitor; method: NanoBRET; cells: HEK293; quantity: normalized BRET
Compound: CN1CCC[C@H]1COc1nc2c(c(N3CCN(S(C)(=O)=O)[C@@H](CC#N)C3)n1)CCN(c1cccc3cccc(Cl)c13)C2
KRAS G13D: GTPase KRas (KRAS, Homo sapiens, UniProt P01116, G13D)
KRAS Q61R: GTPase KRas (KRAS, Homo sapiens, UniProt P01116, Q61R)
KRAS G13D; 137 nM: 86.8% and 94.1% and 83%
KRAS Q61R; 15.2 nM: 81.4% and 82.1% and 97.4%
KRAS G13D; 412 nM: 65.5% and 71.5% and 62.1%
KRAS G13D; 45.7 nM: 93.2% and 91.8% and 80.6%
KRAS G13D; 5.08 nM: 102% and 104% and 92.5%
GTPase KRas (KRAS, Homo sapiens, UniProt P01116, G12D); 137 nM: 99.2% and 95.1% and 94.2%
KRAS G13D; 1.69 nM: 98.4% and 98% and 95.6%
KRAS Q61R; 137 nM: 98.6% and 83.1% and 82%

Series 2 — observed: enzyme activity; mode: inhibitor; tested at: 0.5 µM; reference: control; quantity: remaining activity
Target: Ephrin type-B receptor 3 (EPHB3, Homo sapiens, UniProt P54753)
Target sequence (P54753 1-998): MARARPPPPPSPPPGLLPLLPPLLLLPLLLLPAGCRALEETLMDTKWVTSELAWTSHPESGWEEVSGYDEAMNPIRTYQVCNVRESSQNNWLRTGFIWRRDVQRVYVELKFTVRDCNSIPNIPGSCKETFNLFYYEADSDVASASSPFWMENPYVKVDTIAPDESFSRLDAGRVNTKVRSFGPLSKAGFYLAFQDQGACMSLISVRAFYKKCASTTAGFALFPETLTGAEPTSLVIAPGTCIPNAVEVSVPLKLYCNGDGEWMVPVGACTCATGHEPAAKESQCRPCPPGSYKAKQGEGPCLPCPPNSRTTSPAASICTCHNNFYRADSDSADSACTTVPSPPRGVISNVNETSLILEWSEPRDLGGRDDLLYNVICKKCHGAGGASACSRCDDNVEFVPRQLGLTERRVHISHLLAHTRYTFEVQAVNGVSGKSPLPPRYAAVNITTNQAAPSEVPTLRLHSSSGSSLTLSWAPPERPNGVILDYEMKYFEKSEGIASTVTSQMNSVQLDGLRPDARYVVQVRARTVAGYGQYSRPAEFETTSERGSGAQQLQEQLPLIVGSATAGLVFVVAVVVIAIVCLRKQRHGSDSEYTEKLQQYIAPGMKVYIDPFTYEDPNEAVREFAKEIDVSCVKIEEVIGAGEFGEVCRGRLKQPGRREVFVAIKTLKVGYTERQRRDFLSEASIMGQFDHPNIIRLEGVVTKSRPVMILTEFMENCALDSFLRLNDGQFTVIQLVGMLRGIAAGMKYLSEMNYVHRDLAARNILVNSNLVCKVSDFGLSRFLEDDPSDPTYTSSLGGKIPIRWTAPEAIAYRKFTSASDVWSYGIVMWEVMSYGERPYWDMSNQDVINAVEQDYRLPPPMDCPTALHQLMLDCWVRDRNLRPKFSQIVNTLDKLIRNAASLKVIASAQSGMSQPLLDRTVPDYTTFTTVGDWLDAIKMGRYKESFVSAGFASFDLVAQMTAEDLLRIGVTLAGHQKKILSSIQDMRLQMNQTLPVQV
Nc1cccc(-c2cc3c(Oc4cccc(O)c4)ncnc3[nH]2)c1: 78.8%
Cc1cn(-c2cc(NC(=O)c3ccc(C)c(Nc4nccc(-c5cccnc5)n4)c3)cc(C(F)(F)F)c2)cn1: 5.59%
N#Cc1c(NC(=O)c2cccc3ccccc23)sc2c1CCCC2: 95.9%
Ic1cccc(CSc2nnc(-c3ccncc3)o2)c1: 99.7%
Cc1nc2cc3nc(-c4cccs4)cnc3cc2n1C: 101%
CCN(CC)CCNC(=O)c1c(C)[nH]c(/C=C2\C(=O)Nc3ccc(F)cc32)c1C: 77.4%
CN(C)C[C@H]1CCn2c(c(C3=C(c4cn(C)c5ccccc45)C(=O)NC3=O)c3ccccc32)C1: 105%
CCN(CC)CCNC(=O)c1c(C)[nH]c(/C=C2\C(=O)Nc3ccc(Cl)cc32)c1C: 100%
COc1cc2ncnc(Nc3cccc(Cl)c3)c2cc1OC: 99.1%
COc1cc2c(cc1OC)-c1[nH]nc(Nc3cccc(F)c3)c1C2: 97.2%
CCN(CC)C(=O)c1ccc(Nc2nc(OCC3CCCCC3)c3[nH]cnc3n2)cc1: 99.5%
O=C(Nc1cccc(Nc2nccc(Nc3cccc(C(F)(F)F)c3)n2)c1)C1CC1: 100%

Series 3 — observed: binding; tested at: 1 µM; quantity: remaining binding
SMILES: CN1CCN(C(=O)c2ccc(NC(=O)Nc3ccc(N(C)c4ccnc(Nc5ccc(CS(C)(=O)=O)cc5)n4)cc3)cc2)CC1
Serine/threonine-protein kinase PLK4 (PLK4, Homo sapiens, UniProt O00444); competition with immobilised ligand: 2.7%
Bone morphogenetic protein receptor type-2 (BMPR2, Homo sapiens, UniProt Q13873): 56%
Tyrosine-protein kinase receptor TYRO3 (TYRO3, Homo sapiens, UniProt Q06418): 92%
Dual specificity testis-specific protein kinase 1 (TESK1, Homo sapiens, UniProt Q15569); competition with immobilised ligand: 100%
Serine/threonine-protein kinase Nek6 (NEK6, Homo sapiens, UniProt Q9HC98): 100%
Ribosomal protein S6 kinase alpha-2, N-terminal kinase domain (RPS6KA2, Homo sapiens, UniProt Q15349); competition with immobilised ligand: 84%
Homeodomain-interacting protein kinase 2 (HIPK2, Homo sapiens, UniProt Q9H2X6); competition with immobilised ligand: 77%
Myosin-IIIa (MYO3A, Homo sapiens, UniProt Q8NEV4): 7%
Death-associated protein kinase 3 (DAPK3, Homo sapiens, UniProt O43293): 100%
Serine/threonine-protein kinase Sgk1 (SGK1, Homo sapiens, UniProt O00141): 57%
Serine/threonine-protein kinase TAO3 (TAOK3, Homo sapiens, UniProt Q9H2K8); competition with immobilised ligand: 83%
Cyclin-dependent kinase 11B (CDK11B, Homo sapiens, UniProt P21127); competition with immobilised ligand: 67%

Series 4 — observed: binding; method: competition with immobilised ligand; tested at: 0.1 µM; quantity: remaining binding
Target: Tyrosine-protein kinase ABL1, non-phosphorylated (ABL1, Homo sapiens, UniProt P00519, F317I)
Chain of UniProt P00519 (whole entry, unmodified, looked up): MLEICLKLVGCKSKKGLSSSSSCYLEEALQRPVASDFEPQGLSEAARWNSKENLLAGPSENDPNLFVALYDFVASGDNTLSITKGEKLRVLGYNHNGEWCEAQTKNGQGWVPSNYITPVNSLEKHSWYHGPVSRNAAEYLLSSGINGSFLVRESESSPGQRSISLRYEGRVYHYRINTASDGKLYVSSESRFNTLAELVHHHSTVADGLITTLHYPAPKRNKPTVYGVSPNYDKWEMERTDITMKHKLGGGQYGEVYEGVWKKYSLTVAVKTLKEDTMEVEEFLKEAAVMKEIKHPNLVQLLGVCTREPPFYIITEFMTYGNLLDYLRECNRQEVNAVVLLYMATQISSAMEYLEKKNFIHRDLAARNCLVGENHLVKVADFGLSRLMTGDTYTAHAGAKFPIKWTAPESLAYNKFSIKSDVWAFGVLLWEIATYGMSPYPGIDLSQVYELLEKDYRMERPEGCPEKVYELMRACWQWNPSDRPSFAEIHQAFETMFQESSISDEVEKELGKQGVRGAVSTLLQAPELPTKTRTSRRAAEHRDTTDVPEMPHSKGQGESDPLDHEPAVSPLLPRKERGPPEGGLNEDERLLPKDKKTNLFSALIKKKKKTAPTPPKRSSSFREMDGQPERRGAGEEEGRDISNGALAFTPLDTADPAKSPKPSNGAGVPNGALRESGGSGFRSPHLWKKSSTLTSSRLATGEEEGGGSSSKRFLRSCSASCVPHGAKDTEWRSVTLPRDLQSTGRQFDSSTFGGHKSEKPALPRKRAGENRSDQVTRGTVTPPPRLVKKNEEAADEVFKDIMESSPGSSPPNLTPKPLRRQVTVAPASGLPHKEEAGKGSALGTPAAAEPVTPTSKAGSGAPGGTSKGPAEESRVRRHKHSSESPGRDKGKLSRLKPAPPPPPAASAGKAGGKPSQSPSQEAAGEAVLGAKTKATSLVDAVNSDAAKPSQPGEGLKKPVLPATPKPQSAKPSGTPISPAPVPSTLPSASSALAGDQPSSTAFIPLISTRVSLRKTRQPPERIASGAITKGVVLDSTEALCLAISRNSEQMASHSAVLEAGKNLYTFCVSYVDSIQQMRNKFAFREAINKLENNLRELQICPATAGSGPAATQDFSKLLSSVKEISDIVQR
C[C@@H](NC(=O)Nc1cc2[nH]ncc2c(CO)n1)c1ccccc1: 100%
Cc1ccc(-c2cnc([C@@]3(O)CC[C@H](C(=O)O)C(C)(C)C3)s2)cc1Nc1cccc(C(F)(F)F)n1: 84.1%
Cc1cc(Nc2nccc(C)n2)cc(-c2cnc([C@@]3(O)CC[C@H](C(=O)O)C(C)(C)C3)s2)c1: 100%

Excerpt of the above (series 1):
KRAS G13D; 137 nM: 86.8% and 94.1% and 83%
KRAS Q61R; 15.2 nM: 81.4% and 82.1% and 97.4%
